Assay results from different studies.
A part holds a random share of what one study measured. Values joined by “and” are separate records of one study, mostly repeats; a detail may differ.
UniProt P54646, sequence (whole entry, looked up): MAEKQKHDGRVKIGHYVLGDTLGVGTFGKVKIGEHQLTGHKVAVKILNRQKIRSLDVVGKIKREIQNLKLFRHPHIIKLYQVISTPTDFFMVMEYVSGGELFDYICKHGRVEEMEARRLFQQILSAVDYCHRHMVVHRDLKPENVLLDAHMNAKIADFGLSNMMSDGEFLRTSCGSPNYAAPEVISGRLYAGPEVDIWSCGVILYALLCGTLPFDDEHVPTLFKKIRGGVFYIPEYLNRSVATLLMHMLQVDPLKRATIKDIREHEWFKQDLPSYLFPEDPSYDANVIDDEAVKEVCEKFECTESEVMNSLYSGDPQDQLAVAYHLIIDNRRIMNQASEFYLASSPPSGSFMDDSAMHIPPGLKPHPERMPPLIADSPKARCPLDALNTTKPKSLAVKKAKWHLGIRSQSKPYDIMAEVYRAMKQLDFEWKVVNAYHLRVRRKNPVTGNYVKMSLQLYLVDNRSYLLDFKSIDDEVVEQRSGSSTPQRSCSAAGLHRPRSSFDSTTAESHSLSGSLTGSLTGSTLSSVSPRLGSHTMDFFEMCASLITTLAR
UniProt P29320, sequence (whole entry, looked up): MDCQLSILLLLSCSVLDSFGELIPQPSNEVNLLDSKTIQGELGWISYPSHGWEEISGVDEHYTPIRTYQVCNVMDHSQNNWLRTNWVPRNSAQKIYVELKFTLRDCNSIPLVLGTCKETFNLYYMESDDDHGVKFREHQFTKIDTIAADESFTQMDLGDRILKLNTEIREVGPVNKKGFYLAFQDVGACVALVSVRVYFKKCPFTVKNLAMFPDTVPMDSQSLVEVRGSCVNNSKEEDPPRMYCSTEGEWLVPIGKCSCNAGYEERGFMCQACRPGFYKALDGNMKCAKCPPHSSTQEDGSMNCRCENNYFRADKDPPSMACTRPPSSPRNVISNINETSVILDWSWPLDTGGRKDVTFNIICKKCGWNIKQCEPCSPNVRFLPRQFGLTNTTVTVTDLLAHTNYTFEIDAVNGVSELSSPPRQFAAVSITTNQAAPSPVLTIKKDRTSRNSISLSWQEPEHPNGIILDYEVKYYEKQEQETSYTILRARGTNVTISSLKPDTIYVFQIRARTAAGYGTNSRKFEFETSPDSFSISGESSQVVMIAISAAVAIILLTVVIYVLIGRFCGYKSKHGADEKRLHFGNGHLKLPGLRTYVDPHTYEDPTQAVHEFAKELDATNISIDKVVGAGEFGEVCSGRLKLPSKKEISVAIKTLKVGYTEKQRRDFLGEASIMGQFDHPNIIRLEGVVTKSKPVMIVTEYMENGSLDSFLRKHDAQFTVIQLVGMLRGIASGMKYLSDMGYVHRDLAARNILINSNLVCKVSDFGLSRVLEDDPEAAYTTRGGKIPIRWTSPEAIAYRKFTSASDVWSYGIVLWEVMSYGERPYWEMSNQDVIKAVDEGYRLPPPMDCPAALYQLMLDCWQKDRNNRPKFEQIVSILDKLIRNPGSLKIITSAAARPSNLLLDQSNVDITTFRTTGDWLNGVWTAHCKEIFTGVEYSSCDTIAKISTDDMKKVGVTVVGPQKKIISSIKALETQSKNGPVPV
UniProt P32298, sequence (whole entry, looked up): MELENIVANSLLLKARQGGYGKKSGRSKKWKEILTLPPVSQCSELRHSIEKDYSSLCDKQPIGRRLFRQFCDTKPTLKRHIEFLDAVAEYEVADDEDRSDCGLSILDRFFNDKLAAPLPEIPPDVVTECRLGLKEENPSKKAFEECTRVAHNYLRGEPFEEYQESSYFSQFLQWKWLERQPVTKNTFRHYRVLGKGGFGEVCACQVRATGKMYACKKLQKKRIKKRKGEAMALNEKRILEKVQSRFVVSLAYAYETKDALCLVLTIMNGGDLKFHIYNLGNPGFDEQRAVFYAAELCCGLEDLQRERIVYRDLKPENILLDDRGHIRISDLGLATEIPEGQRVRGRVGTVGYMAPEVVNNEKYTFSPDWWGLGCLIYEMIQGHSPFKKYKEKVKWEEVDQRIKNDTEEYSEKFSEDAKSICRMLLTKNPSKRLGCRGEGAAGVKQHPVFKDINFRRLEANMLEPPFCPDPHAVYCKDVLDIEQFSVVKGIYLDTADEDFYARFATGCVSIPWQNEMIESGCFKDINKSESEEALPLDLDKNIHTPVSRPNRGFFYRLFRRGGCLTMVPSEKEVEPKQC
UniProt O15264, sequence (whole entry, looked up): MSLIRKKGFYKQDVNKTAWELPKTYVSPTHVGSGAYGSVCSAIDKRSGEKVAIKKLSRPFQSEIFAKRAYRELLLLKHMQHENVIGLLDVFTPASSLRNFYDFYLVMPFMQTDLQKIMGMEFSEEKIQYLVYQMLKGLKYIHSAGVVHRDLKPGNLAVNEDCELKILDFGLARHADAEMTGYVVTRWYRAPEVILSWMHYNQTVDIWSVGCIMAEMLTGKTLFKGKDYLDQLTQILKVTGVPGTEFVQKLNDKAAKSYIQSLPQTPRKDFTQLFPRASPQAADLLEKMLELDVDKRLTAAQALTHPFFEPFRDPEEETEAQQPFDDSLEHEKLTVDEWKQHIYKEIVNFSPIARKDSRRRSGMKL
UniProt P35626, sequence (whole entry, looked up): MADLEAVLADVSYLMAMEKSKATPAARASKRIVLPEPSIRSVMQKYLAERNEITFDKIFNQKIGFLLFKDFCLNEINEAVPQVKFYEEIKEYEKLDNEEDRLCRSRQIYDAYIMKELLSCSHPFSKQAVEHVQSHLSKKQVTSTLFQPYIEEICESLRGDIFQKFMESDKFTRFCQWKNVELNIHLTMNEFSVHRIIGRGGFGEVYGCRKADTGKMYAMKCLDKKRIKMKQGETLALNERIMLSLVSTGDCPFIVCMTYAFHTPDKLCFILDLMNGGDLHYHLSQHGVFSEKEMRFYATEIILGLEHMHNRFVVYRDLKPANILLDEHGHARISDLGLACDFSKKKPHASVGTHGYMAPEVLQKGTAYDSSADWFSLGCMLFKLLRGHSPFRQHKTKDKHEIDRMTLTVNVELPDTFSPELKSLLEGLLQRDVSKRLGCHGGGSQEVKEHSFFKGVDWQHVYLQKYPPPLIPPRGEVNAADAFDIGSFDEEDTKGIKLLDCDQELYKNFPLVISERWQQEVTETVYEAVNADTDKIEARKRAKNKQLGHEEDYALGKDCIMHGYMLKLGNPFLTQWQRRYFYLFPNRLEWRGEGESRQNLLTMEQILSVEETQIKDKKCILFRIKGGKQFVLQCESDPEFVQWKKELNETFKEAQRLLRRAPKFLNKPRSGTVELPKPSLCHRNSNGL
UniProt Q13164, sequence (whole entry, looked up): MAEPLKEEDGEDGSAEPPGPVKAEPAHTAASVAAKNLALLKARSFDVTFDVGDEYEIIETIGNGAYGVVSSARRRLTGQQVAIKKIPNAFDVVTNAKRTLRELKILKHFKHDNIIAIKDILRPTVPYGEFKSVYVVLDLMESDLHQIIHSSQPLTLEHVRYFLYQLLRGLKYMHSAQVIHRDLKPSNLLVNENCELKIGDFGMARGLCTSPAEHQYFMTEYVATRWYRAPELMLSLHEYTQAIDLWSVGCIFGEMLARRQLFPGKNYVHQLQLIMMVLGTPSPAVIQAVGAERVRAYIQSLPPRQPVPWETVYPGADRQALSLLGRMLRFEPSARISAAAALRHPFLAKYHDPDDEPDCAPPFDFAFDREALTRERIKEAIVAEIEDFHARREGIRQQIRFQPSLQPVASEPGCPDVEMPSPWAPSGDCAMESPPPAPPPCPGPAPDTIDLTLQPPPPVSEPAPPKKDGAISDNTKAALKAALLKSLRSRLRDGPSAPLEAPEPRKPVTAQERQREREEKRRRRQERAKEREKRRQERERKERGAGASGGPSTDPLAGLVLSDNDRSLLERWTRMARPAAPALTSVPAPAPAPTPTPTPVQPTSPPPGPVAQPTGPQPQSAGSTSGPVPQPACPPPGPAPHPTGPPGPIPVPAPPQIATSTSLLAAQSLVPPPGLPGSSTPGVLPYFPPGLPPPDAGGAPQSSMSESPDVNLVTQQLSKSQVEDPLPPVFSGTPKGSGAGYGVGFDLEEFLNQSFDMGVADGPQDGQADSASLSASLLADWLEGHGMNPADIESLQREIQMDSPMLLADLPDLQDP
UniProt Q9P289, sequence (whole entry, looked up): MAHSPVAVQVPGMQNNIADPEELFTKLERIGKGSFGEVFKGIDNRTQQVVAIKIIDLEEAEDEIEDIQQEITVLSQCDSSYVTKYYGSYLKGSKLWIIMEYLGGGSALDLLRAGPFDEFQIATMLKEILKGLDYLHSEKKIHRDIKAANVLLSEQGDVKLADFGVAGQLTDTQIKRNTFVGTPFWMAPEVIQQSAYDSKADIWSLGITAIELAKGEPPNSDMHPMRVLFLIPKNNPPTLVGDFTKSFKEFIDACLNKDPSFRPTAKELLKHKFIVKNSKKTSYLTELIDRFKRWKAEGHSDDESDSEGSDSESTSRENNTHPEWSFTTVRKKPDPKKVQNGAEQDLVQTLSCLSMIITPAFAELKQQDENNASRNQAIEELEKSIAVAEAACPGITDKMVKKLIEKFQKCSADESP

Sample 1 — matrix: plasma; quantity: plasma concentration
SMILES: O=C1CCC(N2Cc3cc(C4CCN(Cc5ccccc5)CC4)ccc3C2=O)C(=O)N1 (centres unmarked)
male ICR mice; oral, 3 mg/kg, 0.5 h: 268 ng/mL
Sprague Dawley rat, male; intravenous, 1 mg/kg, 1 h: 62.1 ng/mL
male ICR mice; intravenous, 1 mg/kg, 0.083 h: 184 ng/mL
Sprague Dawley rat, male; oral, 3 mg/kg, 0.083 h: 3.36 ng/mL and 6.26 ng/mL and 1.95 ng/mL
male ICR mice; intravenous, 1 mg/kg, 0.25 h: 131 ng/mL
male ICR mice; oral, 3 mg/kg, 0.25 h: 221 ng/mL
ICR mouse, male; oral, 3 mg/kg, 4 h: 26.6 ng/mL and 42.6 ng/mL
male ICR mice; intravenous, 1 mg/kg, 4 h: 17.8 ng/mL
rat; oral, 3 mg/kg, 24 h, below limit of quantitation: not detected

Sample 2 — effect on: cell-free assay; technique: competition with immobilised ligand; tested at: 1 µM; quantity: remaining binding
Compound: Cn1nc(C(F)(F)F)cc1-c1cnc(N2CCc3cc(S(=O)(=O)Nc4c(F)cc(Cl)cc4F)cc(N4CCCC4=O)c32)nc1
PIK3CA (Homo sapiens, UniProt P42336, C420R): 76%
STK26 (Homo sapiens, UniProt Q9P289): 73%
CLK3 (Homo sapiens, UniProt P49761): 88%
MAPK7 (Homo sapiens, UniProt Q13164): 100%
AXL (Homo sapiens, UniProt P30530): 93%
MAP3K2 (Homo sapiens, UniProt Q9Y2U5): 95%
WNK2 (Homo sapiens, UniProt Q9Y3S1): 81%
Tyrosine-protein kinase JAK1, JH1 (JAK1, Homo sapiens, UniProt P23458): 100%
GRK4 (Homo sapiens, UniProt P32298): 100%
FGFR3 (Homo sapiens, UniProt P22607, G697C): 100%
EPHA3 (Homo sapiens, UniProt P29320): 94%
TAOK2 (Homo sapiens, UniProt Q9UL54): 100%
GRK3 (Homo sapiens, UniProt P35626): 82%
NUAK2 (Homo sapiens, UniProt Q9H093): 89%
Non-receptor tyrosine-protein kinase TYK2, JH2 (TYK2, Homo sapiens, UniProt P29597): 90%
Tyrosine-protein kinase ABL1, phosphorylated (ABL1, Homo sapiens, UniProt P00519, F317L): 94%
TSSK1B (Homo sapiens, UniProt Q9BXA7): 100%
MAPK13 (Homo sapiens, UniProt O15264): 100%
TLK1 (Homo sapiens, UniProt Q9UKI8): 78%
COQ8B (Homo sapiens, UniProt Q96D53): 100%
Ribosomal protein S6 kinase alpha-5, N-terminal kinase domain (RPS6KA5, Homo sapiens, UniProt O75582): 86%
PRKAA2 (Homo sapiens, UniProt P54646): 97%

Sample 3 — technique: phase 2a clinical trial; quantity: patients with serious adverse events
SMILES: CC(C)n1cnc(-c2ccc(F)cc2)c1-c1ncc(C(=O)Nc2ccc(N3CCN(C)CC3)cc2)[nH]1
Host: patients with idiopathic pulmonary fibrosis
60 mg once daily, grade ≥3, without standard of care: 14.3%
60 mg once daily, grade ≥3, added: standard of care: 54.5%
30 mg once daily, grade ≥3, added: standard of care: 18.2%

Sample 4 — effect on: enzyme activity; mode: inhibitor; tested at: 0.5 µM; reference: control; quantity: remaining activity
Target: Serine/threonine-protein kinase Sgk3 (SGK3, Homo sapiens, UniProt Q96BR1)
UniProt Q96BR1, sequence (whole entry, looked up): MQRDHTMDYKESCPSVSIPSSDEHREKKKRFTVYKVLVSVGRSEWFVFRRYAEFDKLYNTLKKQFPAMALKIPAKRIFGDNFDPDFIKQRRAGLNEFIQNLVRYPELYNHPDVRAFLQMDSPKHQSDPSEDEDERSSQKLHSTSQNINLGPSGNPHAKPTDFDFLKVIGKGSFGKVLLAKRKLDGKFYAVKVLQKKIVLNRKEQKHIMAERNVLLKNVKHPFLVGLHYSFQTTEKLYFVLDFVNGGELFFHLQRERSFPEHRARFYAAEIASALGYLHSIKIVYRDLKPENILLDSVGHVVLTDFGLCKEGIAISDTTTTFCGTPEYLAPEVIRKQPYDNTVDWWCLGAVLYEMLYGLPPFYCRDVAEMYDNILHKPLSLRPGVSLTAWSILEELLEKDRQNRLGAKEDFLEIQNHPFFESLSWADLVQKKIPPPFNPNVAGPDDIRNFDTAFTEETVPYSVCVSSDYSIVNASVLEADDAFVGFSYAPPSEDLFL
COc1cc2nccc(Oc3ccc(NC(=S)NC(=O)c4ccccc4C)cc3)c2cc1OC: 98.3%
Cc1cccc(-c2[nH]c(C(C)(C)C)nc2-c2ccc3c(c2)OCO3)n1: 98%
CC(C)[C@H](CO)Nc1nc(Nc2cc(N)cc(Cl)c2)c2ncn(C(C)C)c2n1: 99.9%
OCC(O)CCON=C1C(c2c(O)[nH]c3ccccc23)=Nc2ccccc21 (centres unmarked): 100%
Cc1nc(-c2ccccc2)c(-c2ccncc2)o1: 96.4%
O=C(CCCc1ccc(-c2ccccc2F)cc1)Nc1ccc(O)cc1: 106%
COc1ccc(C(=O)Nc2sc3c(c2C(N)=O)CCCC3)cc1OC: 103%
N#CC(C#N)=C(N)/C(C#N)=C/c1ccc(O)cc1: 103%
CN(C)c1ccc(C=C2C(=O)Nc3ccccc32)cc1: 107%
Cn1c2ccccc2c2c3c(c4c5ccccc5n(CCC#N)c4c21)CNC3=O: 112%
COc1cc2ncnc(Nc3ccc(Oc4ccccc4)cc3)c2cc1OC: 101%
Oc1ccc(-c2nc(-c3ccncc3)c(-c3ccc(F)cc3)[nH]2)cc1: 98.4%
Cc1ccc(Nc2nccc(N(C)c3ccc4c(C)n(C)nc4c3)n2)cc1S(N)(=O)=O: 97.5%
Nc1[nH]nc2nc3ccccc3nc12: 96.6%
O=C1NC(=O)C(c2cn(CCCn3ccnc3)c3ccccc23)=C1Nc1ccccc1: 89.9%
Cn1sc(=O)n(Cc2ccccc2)c1=O: 102%

For quick reference, copied from above (sample 4):
Nc1[nH]nc2nc3ccccc3nc12: 96.6%
Oc1ccc(-c2nc(-c3ccncc3)c(-c3ccc(F)cc3)[nH]2)cc1: 98.4%
Cn1c2ccccc2c2c3c(c4c5ccccc5n(CCC#N)c4c21)CNC3=O: 112%
OCC(O)CCON=C1C(c2c(O)[nH]c3ccccc23)=Nc2ccccc21 (centres unmarked): 100%
Cc1nc(-c2ccccc2)c(-c2ccncc2)o1: 96.4%
Cc1cccc(-c2[nH]c(C(C)(C)C)nc2-c2ccc3c(c2)OCO3)n1: 98%
CN(C)c1ccc(C=C2C(=O)Nc3ccccc32)cc1: 107%
O=C1NC(=O)C(c2cn(CCCn3ccnc3)c3ccccc23)=C1Nc1ccccc1: 89.9%
